Assay results from different studies.
A part holds a random share of what one study measured.

Study 1
Target: RNA binding protein fox-1 homolog 2, RRM domain, GST-SBP tag (RBFOX2, Homo sapiens, UniProt O43251-10, residues 100-194)
Method: RNA Bind-n-Seq
Form: RNA
Matrix: in vitro
Tested at: 365 nM
Setting: natural RNA segment, single round, ends assumed
Reference: no-protein control
Reading: higher = stronger binding
Quantity: RBNS enrichment (R)
Shared flanks, not repeated: GGGAGUUCUACAGUCCGACGAUC … UGGAAUUCUCGGGUGCCAA
Target sequence (chain): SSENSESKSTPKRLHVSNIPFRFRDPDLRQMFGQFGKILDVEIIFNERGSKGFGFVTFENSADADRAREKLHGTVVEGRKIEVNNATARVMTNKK
Oligonucleotide = GCUCCGUGUCCUUGUUUUUGACCUUGGCCCUUCCUGAAGUUGCUUUAUCUUACGAAGUAGCUACAGGGUUCUAGCAGUUUCCAGAAUAUAAUGUAGGGGGAUAGCGGGAU; value = 0.369
Oligonucleotide = UGAGAAAGUUAAUAUGUGGCCUCCUUUUCUGAAGCCAGAUCAAACUGUUACCUUGUGUUCCACCUUGAAUCUCACAGCGUCCCCUUCUGCAAUGUAGGUCUCCUUCCUGU; value = 0.476
Oligonucleotide = AAGAUUUUUGUGAGUUUUCCAUCAUGUUGGCCAUCACAUCCUGACUGAAGUCUCAAGAUUCCUGGAAGUGAAGGAAGACACAAAGCUUAAAACUCAGAUGAGAUGCUCUG; value = 0.378
Oligonucleotide = CAGCAAUCUGGGAAGUGACAGGGUUAAUAACUCCUUCCCAGAAGCUGUAUCAUGAGAUUUUGAGGGGACCGAGCCCUGUUACAUGGAUGUGAACAGUGAGGAUCAGAGGU; value = 5.03
Oligonucleotide = AGAGCUAGACGGGCUUCUGCAUGUGAAAUGCUGUAUUCCAUAGGAGUUAAAAGUGCUGACUGAGCAGUCUGACCCCCACGUGGGCACCUGCACUACCAGUUGUUAGAGGA; value = 3.54
Oligonucleotide = AGGACCCGGGUCAUGGGUCAGUGUUAGUGGUAGCGUGCUCUCAUUCGCUUGGAAGUGGUGGCCAUGUGGCCGUUAUACAGCCUUUGCUGAUAUGGCCCUCAUCGUCGUGU; value = 0.419
Oligonucleotide = CCAGCAAAGGAAUCUAGGAAUGACAACUGCAGUGUCCACUCCUAAACACCUCCUUCUCUUACACCCUUCGAAAUGGGUACAAACUUAAUUCUUCUCAGAAACUGGAAGAC; value = 0.543
Oligonucleotide = UAGUUGAGUUGUAUUGCUUCCUGUUCUUCAAGCUUAAUUUGAACUGUCUAAUAAAAAGAAGUAAUUAUUUGGUUCUACUGCCUUUAUUUGAUCUAUUUCUAGGUAUCUCC; value = 1.15
Oligonucleotide = GCUGUUCAUGUGGAUUCAUUCCAUUCAGUGGCCCCUUGGGGUUUGCAUGCCAGUGAAGCGUUACCAUAGAAGAGCCAGCCGUUUGUGUUCGCUUGGUAGGUGUAAGUAAU; value = 7.91
Oligonucleotide = ACAGCAGCCUGGCGUCAGUGACUGGUACCCCUUCUCCUGUGUCCAGUGCAGCCAUGGCAUGCCAGAGAAGUGGCAGCUGCCGCUGUGAGCCACGCAGGAUCCCGUGUCCU; value = 0.503
Oligonucleotide = AAUGAGAAGCCAAGCUUUAAAUAGCAAACUACAGGGUAUUAAAAGACUAACUCUUCAGUUAAGAACACUGUAGAAAUGGUAGACCAACUUAAAGUCUACCUUUUAACAAU; value = 0.355
Oligonucleotide = CUCUCACAGGGGUAAUCAUCUCAAGUGGUAUUUGUAGCCAAGUGGGAGCUAUUUUCUUUUUUGUGCAUAUAGAUAUUUCUUAAAUGAAGCUGCUUUCUUGUCUUUUAUUU; value = 0.751

Study 2
Target: Histone acetyltransferase KAT6A, winged helix 1, GST fusion (KAT6A, Homo sapiens, UniProt Q92794, residues 1-85)
Method: protein binding microarray
Form: double-stranded DNA, one strand shown
Matrix: in vitro
Tested at: not given
Setting: 8-mer, flanks averaged, mean of 2 arrays, mostly near background
Reference: not given
Reading: higher = stronger binding
Quantity: E-score
Residues (chain): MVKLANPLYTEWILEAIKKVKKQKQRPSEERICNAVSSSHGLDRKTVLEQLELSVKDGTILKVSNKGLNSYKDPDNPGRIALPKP
Oligonucleotide = ATATCCGC; value = 0.224
Oligonucleotide = AACTTTAC; value = -0.143
Oligonucleotide = CAGTCCTC; value = -0.277
Oligonucleotide = GCGTATAC; value = 0.239
Oligonucleotide = GGTCTGAC; value = 0.0506
Oligonucleotide = AGGAACTC; value = -0.11
Oligonucleotide = GCAGGACC; value = -0.00248
Oligonucleotide = ATGCACCG; value = 0.0456
Oligonucleotide = ATTTAAGG; value = -0.153
Oligonucleotide = GATGTTGA; value = -0.107
Oligonucleotide = ACCCAGTC; value = -0.00306
Oligonucleotide = TCCCAGAA; value = -0.153
Oligonucleotide = CACCCGTG; value = 0.15
Oligonucleotide = CGTACGAA; value = 0.0926
Oligonucleotide = CAACGTTG; value = -0.0135
Oligonucleotide = ACCGTGGG; value = 0.118
Oligonucleotide = CAACAGCC; value = 0.214

Study 3
Target: Phosphate system positive regulatory protein PHO4, full length, GST-tagged (PHO4, Saccharomyces cerevisiae, UniProt P07270, residues 1-312)
Method: competition protein-binding microarray
Form: double-stranded DNA, one strand shown
Matrix: in vitro
Tested at: 2 µM
Setting: whole 60-bp probe, lowest competitor level
Together with: Cbf1 competitor, 0.05 µM
Reading: higher = stronger binding
Quantity: fluorescence intensity
Shared flanks, not repeated: … GTCTTGATTCGCTTGACGCTGCTG
Target sequence (chain): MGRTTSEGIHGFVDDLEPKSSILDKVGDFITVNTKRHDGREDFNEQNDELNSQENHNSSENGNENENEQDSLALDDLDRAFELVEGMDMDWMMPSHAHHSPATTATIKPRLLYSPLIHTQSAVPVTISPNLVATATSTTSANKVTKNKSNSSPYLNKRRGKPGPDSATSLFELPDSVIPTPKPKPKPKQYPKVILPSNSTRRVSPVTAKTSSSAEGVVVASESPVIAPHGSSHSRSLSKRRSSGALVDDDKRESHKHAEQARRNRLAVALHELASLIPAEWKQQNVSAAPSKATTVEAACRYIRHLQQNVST
Oligonucleotide = AACTATGAGTACAGGCATGTGATGTTACCTAAGGCC; value = 7550 a.u.
Oligonucleotide = GTCTTGTCTCATTGTCACAGTACTTTCCCCACTTCA; value = 4920 a.u.
Oligonucleotide = CGTCCTAGCGATTGAGACGTGGGTGCCATGAGGAAG; value = 8360 a.u.
Oligonucleotide = GTCTTGAAGTTGGCGCACATGGAAATCAAATGACCA; value = 9750 a.u.
Oligonucleotide = TCGGTCTTCTTGATGCTCGTGAACGCCATTTGGTCC; value = 4800 a.u.
Oligonucleotide = GAGATCCAGATGTCGCACGTGACCTAAGTGAGACTG; value = 15200 a.u.
Oligonucleotide = CGTCCTAGTGATTGCAAGGTGGGTGCCATGAGGAAG; value = 6530 a.u.
Oligonucleotide = GGGCGCCGCGACGGTCACGTGCACAGCGGCAGGCCT; value = 13100 a.u.
Oligonucleotide = CTTTCCCGATCTTGTCCTGTGGGTGTAGCACATTTG; value = 4690 a.u.
Oligonucleotide = AAAATGCCAAAGTTCCACGTGCATCCAAACCAGTAG; value = 16800 a.u.
Oligonucleotide = CTTTCCCGATCTTTTCACGTGTTTTTAGCACATTTG; value = 14100 a.u.
Oligonucleotide = AAAGCGGTAATTTGGGAAGTGGGTGCAGATATCTAT; value = 4430 a.u.
Oligonucleotide = CCGATATGCAGACATCATGTTCCTGTATTTTTTGAC; value = 7030 a.u.
Oligonucleotide = GTAATAGGAATAGACCGTGTGATGGTTGCCGTCAGC; value = 6200 a.u.
Oligonucleotide = CTAACGAAGGTTTGAAGCGTGGGTGACAAGCCAAGT; value = 7120 a.u.

Further values, each from its own experiment
Substance = PhoQ, residues 284 288 289 292 302 303 SVTLVV; target = PhoP, residues 12 14 15 18 19 HHYTI (Escherichia coli, UniProt P23836); assay = Sort-seq, refers to: YFP reporter; test system = E. coli; conditions = PhoQ-PhoP variant library, together with: 10 µM Mg2+; how to read = reference: high Mg2+ state, higher = stronger signaling; quantity = fold induction; value = 0.944

Excerpt of the above (study 2):
Oligonucleotide = CAACAGCC; value = 0.214
Oligonucleotide = AACTTTAC; value = -0.143
Oligonucleotide = CGTACGAA; value = 0.0926
Oligonucleotide = CACCCGTG; value = 0.15
Oligonucleotide = GCGTATAC; value = 0.239
Oligonucleotide = CAGTCCTC; value = -0.277
Oligonucleotide = ATATCCGC; value = 0.224
